Assay results of several laboratories.
Each line is one published result; not all experiments were run side by side. “And” joins repeats or separate records; there may be more than shown. ± gives the spread as reported. Values after ≈ are worked out from the molar mass of the structure shown.
Organism: Staphylococcus aureus

CC(=O)NC[C@H]1CN(c2ccc(N3CCOCC3)c(F)c2)C(=O)O1 — MBEC (Calgary Biofilm Device; MRSA 1707 biofilm; 24 h): > 2000 µM
NC[C@H]1O[C@H](O[C@H]2[C@H](O)[C@@H](O[C@H]3O[C@H](CO)[C@@H](O)[C@H](N)[C@H]3O)[C@H](N)C[C@@H]2N)[C@H](O)[C@@H](O)[C@@H]1O — inhibition zone diameter (CGMCC 1.9; concentration not given, 18 h, 37 °C): 17.5 mm
CC(C)c1ccc(/C=C2\N=C(SCc3ccc([N+](=O)[O-])cc3)N(c3ccccc3)C2=O)cc1 — inhibition zone diameter (ATCC 6538; concentration not given): 11 ± 0.66 mm
O=C(NCCc1ccccc1)C1COC2(CCCCC2)OC1 — residual biofilm (crystal violet staining; 500 µg/mL, 24 h; reference: untreated): 17 ± 5%
CCCCCCCCCC(=O)N[C@@H](Cc1c[nH]c2ccccc12)C(=O)N[C@H](CC(N)=O)C(=O)N[C@@H](CC(=O)O)C(=O)N[C@@H]1C(=O)NCC(=O)N[C@@H](CCCN)C(=O)N[C@@H](CC(=O)O)C(=O)N[C@H](C)C(=O)N[C@@H](CC(=O)O)C(=O)NCC(=O)N[C@H](CO)C(=O)N[C@@H]([C@H](C)CC(=O)O)C(=O)N[C@@H](CC(=O)c2ccccc2N)C(=O)O[C@@H]1C — MBC (Calgary Biofilm Device; MRSA 1707; 24 h): 125 µM (≈ 203 µg/mL)
CN[C@H](CC(C)C)C(=O)N[C@H]1C(=O)N[C@@H](CC(N)=O)C(=O)N[C@H]2C(=O)N[C@H]3C(=O)N[C@H](C(=O)N[C@H](C(=O)O)c4cc(O)cc(O)c4-c4cc3ccc4O)[C@H](O)c3ccc(c(Cl)c3)Oc3cc2cc(c3O[C@@H]2O[C@H](CO)[C@@H](O)[C@H](O)[C@H]2O[C@H]2C[C@](C)(N)[C@H](O)[C@H](C)O2)Oc2ccc(cc2Cl)[C@H]1O — MIC50 (MSSA, 67 strains): 1 µg/mL
OC[C@H]1O[C@@H](Oc2cc3c(O)cc(O)cc3[o+]c2-c2ccc(O)c(O)c2)[C@H](O[C@@H]2OC[C@@H](O)[C@H](O)[C@H]2O)[C@@H](O)[C@@H]1O — IC50 (bacterial growth; ATCC 29213; 24 h): 16.8 µM
CC1(C)OCC(C(=O)NCc2ccccc2)O1 (stereo not shown) — residual biofilm (crystal violet staining; 500 µg/mL, 24 h; reference: untreated): 34 ± 8%
O=C(O)c1ccc(O)c(O)c1 — IC50 (bacterial growth; ATCC 29213; 24 h): > 100 µM
C=CC[C@@H]1c2ccc(OC)c(OC)c2CN2CCc3cc4c(cc3[C@H]12)OCO4 — relative wound size (P2rx7+/+ mice, skin wound infection; dose not given, day 1; reference: day 0): 0.95 and 0.93 and 0.81 and 0.94 and 1.08
CN[C@H](CC(C)C)C(=O)N[C@H]1C(=O)N[C@@H](CC(N)=O)C(=O)N[C@H]2C(=O)N[C@H]3C(=O)N[C@H](C(=O)N[C@H](C(=O)O)c4cc(O)cc(O)c4-c4cc3ccc4O)[C@H](O)c3ccc(c(Cl)c3)Oc3cc2cc(c3O[C@@H]2O[C@H](CO)[C@@H](O)[C@H](O)[C@H]2O[C@H]2C[C@](C)(N)[C@H](O)[C@H](C)O2)Oc2ccc(cc2Cl)[C@H]1O — MIC (ATCC 29213; with: EDTA 0.3 mM): 1 µg/mL (≈ 0.69 µM)
Cc1ccc(C[C@H](NC(=O)[C@@H](Cc2ccccc2)NC(=O)[C@@H](Cc2c[nH]c3ccccc23)NC(=O)[C@@H](N)CCCN)C(=O)N[C@H](Cc2ccccc2)C(=O)N[C@H](CCCCN)C(N)=O)cc1 — IC50 (ATCC 33591, methicillin-resistant): > 20 µg/mL
O=C(O)c1ccc(-n2cc(CNc3cc(Br)cc(C(F)(F)F)c3)c(-c3ccc(F)c(F)c3)n2)cc1 — log reduction in viable cells (time-kill; ATCC 700699 (MRSA); 4 × MIC, 4 h): 4 log CFU/mL
CN[C@H](CC(C)C)C(=O)N[C@H]1C(=O)N[C@@H](CC(N)=O)C(=O)N[C@H]2C(=O)N[C@H]3C(=O)N[C@H](C(=O)N[C@H](C(=O)O)c4cc(O)cc(O)c4-c4cc3ccc4O)[C@H](O)c3ccc(c(Cl)c3)Oc3cc2cc(c3O[C@@H]2O[C@H](CO)[C@@H](O)[C@H](O)[C@H]2O[C@H]2C[C@](C)(N)[C@H](O)[C@H](C)O2)Oc2ccc(cc2Cl)[C@H]1O — skin inflammation score (H&E histology; MRSA GU-1, mouse skin infection model, skin; 2.5 mg/kg; direction not given): 1
O=C(O)c1ccc(-n2cc(CNc3ccc(Cl)c(C(F)(F)F)c3)c(-c3cccc(F)c3)n2)cc1 — PI-stained cells (membrane permeabilisation, flow cytometry; ATCC 700699; 1 x MIC, 30 min): 22%
Cc1ccc(C[C@H](NC(=O)[C@@H](Cc2ccccc2)NC(=O)[C@@H](Cc2c[nH]c3ccccc23)NC(=O)[C@@H](N)CCCN)C(=O)N[C@H](Cc2ccccc2)C(=O)N[C@H](CCCN)C(N)=O)cc1 — IC50 (bacterial growth; ATCC 29213): > 20 µg/mL
CN[C@H](CC(C)C)C(=O)N[C@H]1C(=O)N[C@@H](CC(N)=O)C(=O)N[C@H]2C(=O)N[C@H]3C(=O)N[C@H](C(=O)N[C@H](C(=O)O)c4cc(O)cc(O)c4-c4cc3ccc4O)[C@H](O)c3ccc(c(Cl)c3)Oc3cc2cc(c3O[C@@H]2O[C@H](CO)[C@@H](O)[C@H](O)[C@H]2O[C@H]2C[C@](C)(N)[C@H](O)[C@H](C)O2)Oc2ccc(cc2Cl)[C@H]1O — intracellular bacteria killed (colony counting; RAW264.7 29213 infected, 29213; 32 µM, 4 h): 32.6%
O=c1c(O)c(-c2ccc(O)cc2)oc2cc(O)cc(O)c12 — IC50 (bacterial growth; ATCC 29213; 24 h): > 100 µM
[Cl][Fe]([Cl])[Cl] — MIC50 (24 h, 37 °C): > 1600 µM
CCn1cc(C(=O)O)c(=O)c2cc(F)c(N3CCNCC3)cc21 — MBC (broth microdilution; MRSA NCTC 12493): 2 µM (≈ 0.639 µg/mL)
CC(C)c1ccc(/C=C2\NC(=S)N(c3ccccc3)C2=O)cc1 — inhibition zone diameter (ATCC 6538; concentration not given): 11 ± 0.77 mm
CN[C@H](CC(C)C)C(=O)N[C@H]1C(=O)N[C@@H](CC(N)=O)C(=O)N[C@H]2C(=O)N[C@H]3C(=O)N[C@H](C(=O)N[C@H](C(=O)O)c4cc(O)cc(O)c4-c4cc3ccc4O)[C@H](O)c3ccc(c(Cl)c3)Oc3cc2cc(c3O[C@@H]2O[C@H](CO)[C@@H](O)[C@H](O)[C@H]2O[C@H]2C[C@](C)(N)[C@H](O)[C@H](C)O2)Oc2ccc(cc2Cl)[C@H]1O — log bacterial load (09057, female BALB/c mice, sepsis, spleen; intraperitoneal, 20 mg/kg): 4.91 log(CFU/g) and 5.18 log(CFU/g) and 4.73 log(CFU/g) and 5.2 log(CFU/g) and 5.25 log(CFU/g) and 5.26 log(CFU/g)
CCn1cc(C(=O)O)c(=O)c2cc(F)c(N3CCNCC3)cc21 — inhibition zone diameter (CGMCC 1.9; concentration not given, 18 h, 37 °C): 11 mm
O=c1c(O[C@@H]2O[C@H](CO)[C@@H](O)[C@H](O)[C@H]2O)c(-c2ccc(O)cc2)oc2cc(O)cc(O)c12 — IC50 (bacterial growth; ATCC 29213; 24 h): > 100 µM
CCCCCCCCCCCC(=O)N[C@H](CO)C(=O)N[C@@H]1C(=O)N[C@H](CCN)C(=O)N[C@@H](CC(=O)O)C(=O)NCC(=O)N[C@H](CC(N)=O)C(=O)N[C@H](CC(=O)O)C(=O)NCC(=O)N[C@@H](Cc2ccc(O)cc2)C(=O)N[C@@H](C(C)C)C(=O)N[C@@H](CCN)C(=O)N[C@@H](Cc2ccccc2)C(=O)O[C@@H]1C — antibacterial activity (USA300; concentration not given, compound to lipid molar ratios 0 and 5, with: undecaprenyl phosphate): decreased
O=C(NCCc1ccccc1)C(O)CO (stereo not shown) — residual biofilm (crystal violet staining; 500 µg/mL, 24 h; reference: untreated): 83 ± 10%
CN[C@H](CC(C)C)C(=O)N[C@H]1C(=O)N[C@@H](CC(N)=O)C(=O)N[C@H]2C(=O)N[C@H]3C(=O)N[C@H](C(=O)N[C@H](C(=O)O)c4cc(O)cc(O)c4-c4cc3ccc4O)[C@H](O)c3ccc(c(Cl)c3)Oc3cc2cc(c3O[C@@H]2O[C@H](CO)[C@@H](O)[C@H](O)[C@H]2O[C@H]2C[C@](C)(N)[C@H](O)[C@H](C)O2)Oc2ccc(cc2Cl)[C@H]1O — remaining wound area (CMCC 26003, mouse skin infection model; topical, 2 mg/kg, day 12): 8.21%
CN[C@H](CC(C)C)C(=O)N[C@H]1C(=O)N[C@@H](CC(N)=O)C(=O)N[C@H]2C(=O)N[C@H]3C(=O)N[C@H](C(=O)N[C@H](C(=O)O)c4cc(O)cc(O)c4-c4cc3ccc4O)[C@H](O)c3ccc(c(Cl)c3)Oc3cc2cc(c3O[C@@H]2O[C@H](CO)[C@@H](O)[C@H](O)[C@H]2O[C@H]2C[C@](C)(N)[C@H](O)[C@H](C)O2)Oc2ccc(cc2Cl)[C@H]1O — bacterial load in thigh (MRSA, neutropenic mouse thigh infection; dose not given): 6.51 log CFU and 6.38 log CFU and 6.2 log CFU and 4.6 log CFU and 7.13 log CFU and 5.94 log CFU
CN[C@H](CC(C)C)C(=O)N[C@H]1C(=O)N[C@@H](CC(N)=O)C(=O)N[C@H]2C(=O)N[C@H]3C(=O)N[C@H](C(=O)N[C@H](C(=O)O)c4cc(O)cc(O)c4-c4cc3ccc4O)[C@H](O)c3ccc(c(Cl)c3)Oc3cc2cc(c3O[C@@H]2O[C@H](CO)[C@@H](O)[C@H](O)[C@H]2O[C@H]2C[C@](C)(N)[C@H](O)[C@H](C)O2)Oc2ccc(cc2Cl)[C@H]1O — bacterial load (USA300 LAC, female ICR mice, peritonitis, spleen): 4.68 log CFU and 5.39 log CFU and 4.31 log CFU and 5.45 log CFU and 5.7 log CFU and 4.7 log CFU
OC[C@H]1O[C@@H](O[C@H]2[C@H](Oc3cc4c(O)cc(O)cc4[o+]c3-c3ccc(O)c(O)c3)O[C@H](CO)[C@@H](O)[C@@H]2O)[C@H](O)[C@@H](O)[C@@H]1O — IC50 (bacterial growth; ATCC 29213; 24 h): 32.4 µM
CN[C@H](CC(C)C)C(=O)N[C@H]1C(=O)N[C@@H](CC(N)=O)C(=O)N[C@H]2C(=O)N[C@H]3C(=O)N[C@H](C(=O)N[C@H](C(=O)O)c4cc(O)cc(O)c4-c4cc3ccc4O)[C@H](O)c3ccc(c(Cl)c3)Oc3cc2cc(c3O[C@@H]2O[C@H](CO)[C@@H](O)[C@H](O)[C@H]2O[C@H]2C[C@](C)(N)[C@H](O)[C@H](C)O2)Oc2ccc(cc2Cl)[C@H]1O — isolates inhibited (clinical isolates; ≤0.5 µg/mL, MIC breakpoint): 13.6%
[H]/N=C(/N)N[C@H]1[C@H](O)[C@@H](O)[C@H](O[C@@H]2O[C@@H](C)[C@](O)(C=O)[C@H]2O[C@@H]2O[C@@H](CO)[C@H](O)[C@@H](O)[C@@H]2NC)[C@@H](N/C(N)=N\[H])[C@@H]1O — inhibition zone diameter (CGMCC 1.9; concentration not given, 18 h, 37 °C): 13 mm
CN[C@H](CC(C)C)C(=O)N[C@H]1C(=O)N[C@@H](CC(N)=O)C(=O)N[C@H]2C(=O)N[C@H]3C(=O)N[C@H](C(=O)N[C@H](C(=O)O)c4cc(O)cc(O)c4-c4cc3ccc4O)[C@H](O)c3ccc(c(Cl)c3)Oc3cc2cc(c3O[C@@H]2O[C@H](CO)[C@@H](O)[C@H](O)[C@H]2O[C@H]2C[C@](C)(N)[C@H](O)[C@H](C)O2)Oc2ccc(cc2Cl)[C@H]1O — MIC90 (broth microdilution; methicillin-resistant isolates): 2 µg/mL (≈ 1.38 µM)
CC[C@@H](C)[C@H]1O[C@@H](c2c(O)c(-c3ccccc3)cn(O)c2=O)[C@H](C)C[C@@H]1C — IC50 (bacterial growth; ATCC 29213): > 20 µg/mL

Some of these lines once more:
CCn1cc(C(=O)O)c(=O)c2cc(F)c(N3CCNCC3)cc21 — MBC (broth microdilution; MRSA NCTC 12493): 2 µM (≈ 0.639 µg/mL)
O=C(NCCc1ccccc1)C(O)CO (stereo not shown) — residual biofilm (crystal violet staining; 500 µg/mL, 24 h; reference: untreated): 83 ± 10%
CC(C)c1ccc(/C=C2\N=C(SCc3ccc([N+](=O)[O-])cc3)N(c3ccccc3)C2=O)cc1 — inhibition zone diameter (ATCC 6538; concentration not given): 11 ± 0.66 mm
